Results of several laboratories.
Lines come from different studies, so protocols differ. Numbers after ± are the reported error.
sdiA: Regulatory protein SdiA (sdiA, Escherichia coli, UniProt P07026)
Sequence of UniProt P07026 (whole entry, looked up): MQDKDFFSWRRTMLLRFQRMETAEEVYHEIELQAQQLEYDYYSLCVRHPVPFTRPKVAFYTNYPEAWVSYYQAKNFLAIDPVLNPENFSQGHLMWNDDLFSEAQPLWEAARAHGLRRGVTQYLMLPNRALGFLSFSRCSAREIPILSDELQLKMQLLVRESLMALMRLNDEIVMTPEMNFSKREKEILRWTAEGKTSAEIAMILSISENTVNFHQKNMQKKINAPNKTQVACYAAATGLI
Sequence of UniProt Q9Y3R4 (whole entry, looked up): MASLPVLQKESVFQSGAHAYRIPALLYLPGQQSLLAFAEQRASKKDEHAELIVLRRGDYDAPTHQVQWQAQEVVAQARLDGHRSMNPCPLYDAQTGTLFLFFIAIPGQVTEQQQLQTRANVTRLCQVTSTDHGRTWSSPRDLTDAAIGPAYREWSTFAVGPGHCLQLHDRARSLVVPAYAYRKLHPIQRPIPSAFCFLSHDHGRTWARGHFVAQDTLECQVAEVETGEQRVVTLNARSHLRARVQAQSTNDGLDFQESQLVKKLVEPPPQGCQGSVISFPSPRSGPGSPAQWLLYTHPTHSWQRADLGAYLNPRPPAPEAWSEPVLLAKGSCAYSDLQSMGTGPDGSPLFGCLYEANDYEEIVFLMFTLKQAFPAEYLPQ
Sequence of UniProt P14779 (whole entry, looked up): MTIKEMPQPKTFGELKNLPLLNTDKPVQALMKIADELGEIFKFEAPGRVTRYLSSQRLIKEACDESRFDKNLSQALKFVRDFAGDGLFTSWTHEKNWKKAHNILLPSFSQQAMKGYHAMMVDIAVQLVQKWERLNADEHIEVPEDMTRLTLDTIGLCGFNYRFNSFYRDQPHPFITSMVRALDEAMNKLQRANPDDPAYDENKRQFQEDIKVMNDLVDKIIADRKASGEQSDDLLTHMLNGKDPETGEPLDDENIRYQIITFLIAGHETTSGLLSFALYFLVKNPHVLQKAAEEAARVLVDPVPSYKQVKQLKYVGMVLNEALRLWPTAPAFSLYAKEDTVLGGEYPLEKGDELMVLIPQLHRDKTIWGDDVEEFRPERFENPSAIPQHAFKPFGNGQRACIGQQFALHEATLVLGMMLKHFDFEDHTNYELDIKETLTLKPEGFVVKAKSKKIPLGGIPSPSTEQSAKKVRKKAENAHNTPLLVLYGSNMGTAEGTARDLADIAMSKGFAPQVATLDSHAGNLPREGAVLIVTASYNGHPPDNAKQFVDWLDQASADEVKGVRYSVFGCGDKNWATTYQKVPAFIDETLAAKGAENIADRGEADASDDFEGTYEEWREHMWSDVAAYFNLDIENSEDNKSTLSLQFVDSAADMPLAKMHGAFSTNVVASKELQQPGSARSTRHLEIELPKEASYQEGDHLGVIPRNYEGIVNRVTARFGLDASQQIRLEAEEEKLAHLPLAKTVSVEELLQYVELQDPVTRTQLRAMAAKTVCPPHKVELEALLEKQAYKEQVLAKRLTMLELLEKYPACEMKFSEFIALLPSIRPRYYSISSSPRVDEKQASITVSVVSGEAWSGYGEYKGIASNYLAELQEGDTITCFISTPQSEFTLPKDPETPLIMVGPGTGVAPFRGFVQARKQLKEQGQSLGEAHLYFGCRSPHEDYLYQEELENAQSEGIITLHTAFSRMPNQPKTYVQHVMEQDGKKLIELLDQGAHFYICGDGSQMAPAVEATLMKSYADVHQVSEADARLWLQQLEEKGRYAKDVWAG
Sequence of UniProt Q9UGM1 (whole entry, looked up): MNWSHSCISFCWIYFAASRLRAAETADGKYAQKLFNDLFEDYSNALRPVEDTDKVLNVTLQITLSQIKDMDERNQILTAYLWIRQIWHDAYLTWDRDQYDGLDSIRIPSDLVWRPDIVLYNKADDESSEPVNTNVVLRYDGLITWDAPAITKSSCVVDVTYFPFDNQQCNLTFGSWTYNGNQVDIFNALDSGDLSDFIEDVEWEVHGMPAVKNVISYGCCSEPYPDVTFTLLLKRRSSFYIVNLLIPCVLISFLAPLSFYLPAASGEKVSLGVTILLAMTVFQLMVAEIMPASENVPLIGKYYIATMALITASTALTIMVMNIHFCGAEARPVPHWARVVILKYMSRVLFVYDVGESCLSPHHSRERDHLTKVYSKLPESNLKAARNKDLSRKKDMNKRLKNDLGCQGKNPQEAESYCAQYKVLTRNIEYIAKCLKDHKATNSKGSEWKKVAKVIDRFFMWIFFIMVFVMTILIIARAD
Sequence of UniProt P50750 (whole entry, looked up): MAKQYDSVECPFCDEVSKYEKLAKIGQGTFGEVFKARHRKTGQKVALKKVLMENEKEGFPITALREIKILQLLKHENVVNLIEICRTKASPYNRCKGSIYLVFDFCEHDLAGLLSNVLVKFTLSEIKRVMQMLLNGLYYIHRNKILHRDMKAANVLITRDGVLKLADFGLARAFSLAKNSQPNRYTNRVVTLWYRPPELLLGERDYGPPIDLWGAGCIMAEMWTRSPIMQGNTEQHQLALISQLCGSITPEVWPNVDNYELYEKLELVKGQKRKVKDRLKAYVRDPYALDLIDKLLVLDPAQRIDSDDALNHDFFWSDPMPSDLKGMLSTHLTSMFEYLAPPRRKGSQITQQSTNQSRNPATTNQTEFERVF
Sequence of UniProt C7FF04 (whole entry, looked up): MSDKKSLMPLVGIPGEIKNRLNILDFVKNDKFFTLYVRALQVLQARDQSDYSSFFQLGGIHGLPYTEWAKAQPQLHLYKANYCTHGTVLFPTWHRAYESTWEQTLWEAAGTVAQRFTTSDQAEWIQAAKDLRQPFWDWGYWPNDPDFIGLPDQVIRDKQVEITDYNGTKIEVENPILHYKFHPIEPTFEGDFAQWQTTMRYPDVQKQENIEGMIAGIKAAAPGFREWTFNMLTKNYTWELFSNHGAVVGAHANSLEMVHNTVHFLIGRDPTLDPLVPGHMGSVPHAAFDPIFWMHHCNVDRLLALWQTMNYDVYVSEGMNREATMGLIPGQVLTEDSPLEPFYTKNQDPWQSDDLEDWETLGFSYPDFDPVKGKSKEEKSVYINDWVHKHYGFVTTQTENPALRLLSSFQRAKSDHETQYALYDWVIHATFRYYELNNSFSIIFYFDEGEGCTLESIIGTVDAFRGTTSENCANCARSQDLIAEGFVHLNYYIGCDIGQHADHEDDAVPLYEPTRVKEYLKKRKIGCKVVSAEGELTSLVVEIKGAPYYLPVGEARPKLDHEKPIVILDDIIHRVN
Sequence of UniProt P29371 (whole entry, looked up): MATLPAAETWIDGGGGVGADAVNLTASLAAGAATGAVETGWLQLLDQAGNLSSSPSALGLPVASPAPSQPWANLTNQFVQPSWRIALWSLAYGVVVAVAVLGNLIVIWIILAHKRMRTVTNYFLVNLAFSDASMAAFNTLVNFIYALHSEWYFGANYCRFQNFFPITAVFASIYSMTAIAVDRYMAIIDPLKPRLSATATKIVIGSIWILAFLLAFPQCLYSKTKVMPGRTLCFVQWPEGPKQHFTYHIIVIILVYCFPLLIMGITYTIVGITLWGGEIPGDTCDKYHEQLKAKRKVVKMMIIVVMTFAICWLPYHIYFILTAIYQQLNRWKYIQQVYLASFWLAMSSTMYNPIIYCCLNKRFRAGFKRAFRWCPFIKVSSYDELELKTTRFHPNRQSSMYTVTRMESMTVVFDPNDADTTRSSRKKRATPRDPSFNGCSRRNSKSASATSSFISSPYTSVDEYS
Sequence of UniProt Q63HM1 (whole entry, looked up): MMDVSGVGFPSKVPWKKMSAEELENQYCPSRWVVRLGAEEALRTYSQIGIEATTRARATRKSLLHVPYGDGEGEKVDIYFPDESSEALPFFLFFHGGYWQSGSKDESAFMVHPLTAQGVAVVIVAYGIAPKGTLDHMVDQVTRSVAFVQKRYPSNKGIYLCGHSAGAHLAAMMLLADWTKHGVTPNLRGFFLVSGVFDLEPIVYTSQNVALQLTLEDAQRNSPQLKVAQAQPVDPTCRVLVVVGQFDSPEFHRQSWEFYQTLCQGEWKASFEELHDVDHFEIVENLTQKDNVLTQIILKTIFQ
Sequence of UniProt P30989 (whole entry, looked up): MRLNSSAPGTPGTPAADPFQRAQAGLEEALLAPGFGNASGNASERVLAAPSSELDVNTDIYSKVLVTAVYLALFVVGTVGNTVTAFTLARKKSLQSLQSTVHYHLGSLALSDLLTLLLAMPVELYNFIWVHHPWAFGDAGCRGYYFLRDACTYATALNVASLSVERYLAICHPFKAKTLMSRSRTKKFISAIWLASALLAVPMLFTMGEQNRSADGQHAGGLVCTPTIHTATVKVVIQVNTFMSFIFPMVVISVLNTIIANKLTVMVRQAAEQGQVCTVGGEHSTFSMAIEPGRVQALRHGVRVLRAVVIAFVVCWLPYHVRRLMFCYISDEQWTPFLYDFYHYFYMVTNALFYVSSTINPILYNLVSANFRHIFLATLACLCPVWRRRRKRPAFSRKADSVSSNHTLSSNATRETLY
Sequence of UniProt Q9JLB5 (whole entry, looked up): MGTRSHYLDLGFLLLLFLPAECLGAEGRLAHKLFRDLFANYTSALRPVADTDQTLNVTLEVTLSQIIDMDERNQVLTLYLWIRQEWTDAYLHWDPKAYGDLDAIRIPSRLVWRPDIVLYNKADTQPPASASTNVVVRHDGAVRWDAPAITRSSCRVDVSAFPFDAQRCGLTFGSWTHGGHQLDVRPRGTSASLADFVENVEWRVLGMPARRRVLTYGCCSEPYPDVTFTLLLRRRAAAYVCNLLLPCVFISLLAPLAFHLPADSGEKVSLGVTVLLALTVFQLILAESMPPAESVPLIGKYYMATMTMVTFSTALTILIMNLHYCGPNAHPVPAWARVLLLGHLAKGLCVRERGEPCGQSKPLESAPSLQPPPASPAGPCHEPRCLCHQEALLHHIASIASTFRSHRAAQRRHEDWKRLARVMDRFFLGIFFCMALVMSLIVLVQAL
Sequence of UniProt P07148 (whole entry, looked up): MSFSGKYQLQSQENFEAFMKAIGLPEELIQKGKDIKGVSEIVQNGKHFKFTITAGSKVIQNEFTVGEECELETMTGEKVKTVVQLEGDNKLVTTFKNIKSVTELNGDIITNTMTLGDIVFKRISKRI

`O=C(Nc1cnccc1Cl)N1CCN(Cc2ccc3c(c2)OC(F)(F)O3)CC1`: “inhibition of binding” 5% (HTR3A (Homo sapiens, UniProt P46098); radioligand binding; 10 µM, added: [3H]GR-65630).
For `C[C@H]1CN(c2n[nH]c3nc(N[C@H]4CC[C@H](NS(=O)(=O)CCC(F)(F)F)CC4)ncc23)CCO1`, the remaining binding was 1.09 (MICOS complex subunit MIC19 (Homo sapiens, UniProt Q9NX63); Kinobeads competition, refers to: CHCHD3; 0.032 µM, unit not given; reference: vehicle).
For `COc1ncccc1-c1cnn2ccc(N3CCN(C(=O)OC(C)C)CC3)nc12`, the remaining binding was 48% (Tyrosine-protein kinase JAK1, JH2 pseudokinase domain (JAK1, Homo sapiens, UniProt P23458); KINOMEscan binding; 1 µM; reference: untreated control).
Under “linear uptake duration”, `O=C(O)C(F)(F)C(F)(F)C(F)(F)C(F)(F)C(F)(F)C(F)(F)C(F)(F)F` is recorded as 2.5 min (SLC22A6 (Homo sapiens, UniProt Q4U2R8); substrate; HEK293 stably expressing; 10 µM).
The remaining activity of `O=C(NNC(=O)c1csnn1)c1ccc(Cl)cc1` is reported as 41.4% (Acetyl-CoA synthetase (Cryptococcus neoformans, UniProt J9VFT1); 3.13 µM).
The k4 of `CSC[C@H]1CN(Cc2c[nH]c3c(N)ncnc23)C[C@@H]1O` is reported as 0.14 ± 0.02 min⁻¹ (Aminodeoxyfutalosine nucleosidase (Helicobacter pylori, UniProt Q9ZMY2); radiolabel chase ultrafiltration; pH 7.4, inhibitor off-rate).
`CC[C@H](CO)Nc1nc(NCc2ccc(-c3ccccn3)cc2)c2ncn(C(C)C)c2n1` gave a binding score of 3.2 (CDK9 (Homo sapiens, UniProt P50750); KINOMEscan competition binding; 10 µM, primary screen; direction not given).
For `O=C(c1ccc(Cl)cc1)N1CCN2C(=O)N(OC(=O)N3CCOc4ccccc43)C(=O)C2C1` (stereo not shown), the median ratio was 1.17 (Kynurenine formamidase (AFMID, Homo sapiens, UniProt Q63HM1); enzyme activity, inhibitor, MS-based ABPP; SW-620 in situ; 10 µM, 2 h, 37 °C; reference: compound over DMSO, lower = stronger inhibition).
Under “surface TFRC expression”, `CC[C@@H](C)[C@@H](NC(=O)[C@@H](Cc1ccc(O)cc1)NC(=O)[C@H]1CCCN1C(=O)[C@@H](CCCNC(=N)N)NC(=O)[C@H](N)Cc1c[nH]cn1)C(=O)N[C@H](C)C(=O)N[C@H](Cc1c[nH]cn1)C(=O)N[C@H](CCCNC(=N)N)C(=O)N[C@H](CCCCNC(=O)c1cccc(S(=O)(=O)F)c1)C(=O)N[C@H](Cc1ccc(O)cc1)C(=O)N[C@H](CO)C(=O)N[C@H](Cc1ccccc1)C(N)=O` is recorded as 0.897 (Transferrin receptor protein 1 (Tfrc, Mus musculus, UniProt Q62351); flow cytometry; DC2.4; 2 h, pH 6, replicate 1, unit not given; reference: 0 h).
`O=C(O)COP(=O)(O)O` has a Ki ratio of 8.1 (TPI1 (Saccharomyces cerevisiae, UniProt P00942, Y208T); enzyme activity, competitive inhibitor, GPDH/NADH-coupled; pH 6.4, 25 °C, ionic strength 0.1 NaCl, added: glyceraldehyde 3-phosphate substrate; reference: mutant over wild type).
Under “log2 fold change”, `COc1cc(N)c(Cl)cc1C(=O)NC1CN2CCC1CC2` (stereo not shown) is recorded as 0.085 (Retinoic acid-induced protein 3 (GPRC5A, Homo sapiens, UniProt Q8NFJ5); β-arrestin recruitment, TANGO luminescence, refers to: GPRC5A; concentration not given; reference: basal luminescence).
`O=C(CF)NC1C(O)CC(OC2C(O)C(CO)OC(Oc3ccc([N+](=O)[O-])cc3)C2O)(C(=O)O)OC1C(O)C(O)CO` (stereo not shown): “sialic acid release” 66% (Sialidase-2 (Homo sapiens, UniProt Q9Y3R4); substrate; 0.3 mM, 30 min, pH 5.0, 37 °C).
`O=c1cc(CSc2ccc(N=Cc3ccccc3)cc2)occ1O`: “binding sites number” 1.25 (PPO3 (Agaricus bisporus, UniProt C7FF04); fluorescence quenching; concentration not given).
`Clc1ccc(-c2ccccc2Cl)cc1` gave an EC25 of 10 µM (Estrogen receptor (ESR1, Homo sapiens, UniProt P03372); reporter gene, agonist; T47D.luc; 24 h; reference: estradiol).
`C[N+]1(C)CCN(c2ccccc2)CC1` — result for “response relative to ACh”: < 5% (CHRNA9 (Homo sapiens, UniProt Q9UGM1); peak current, agonist, two-electrode voltage clamp; Xenopus oocytes coexpressing rapsyn; 30 µM; reference: ACh 60 µM).
With `Nc1ncnc2c1ncn2[C@@H]1O[C@H](COP(=O)(O)OP(=O)(O)O)[C@@H](O)[C@H]1O` the ΔH was -2.2 ± 0.0514 kcal/mol (Cell cycle histidine kinase CckA, R374A; cytoplasmic region (Caulobacter vibrioides, UniProt Q9X688, R374A); binding, ITC; added: without c-di-GMP).
`CC=O`: “catalytic efficiency decrease” 10 fold (ADH1 (Saccharomyces cerevisiae, UniProt P00330, H49Q); enzyme activity, substrate; pH 7.3; reference: wild type).
With `CC(=O)SCC[N+](C)(C)C` the Km was 50 µM (acetylcholinesterase, Homarus americanus; enzyme activity, substrate, Ellman; ventral nerve cord homogenate; pH 7.4).
For `[2H]c1c([2H])c([C@]2([2H])CCCN2C(=O)C(C)(C)Oc2ccc3cn[nH]c3c2)c([2H])c([2H])c1C([2H])([2H])[2H]`, the remaining binding was 60% (FGR (Homo sapiens, UniProt P09769); KINOMEscan; 1 µM; reference: DMSO control).
The specific binding of `CCN(CC)CCCC[C@H](NC(=O)[C@H](CC(C)C)NC(=O)[C@H](C)NC(=O)[C@H](Cc1ccccc1)NC(=O)c1ccc(C(C)(C)C)cc1)C(=O)N[C@@H](CO)C(=O)OC` is reported as 92.4% (TACR3 (Homo sapiens, UniProt P29371); antagonist, radioligand binding; 10 µM; reference: control binding).
The potentiation of `Nc1ccncc1` is reported as 87% (Glutamate receptor 2 (Homo sapiens, UniProt P42262); ion current, positive allosteric modulator, automated patch clamp; HEK293; 10 µM).
The Emax of `CCCCCC(=O)N[C@H]1CCOC1=O` is reported as 95.3% (sdiA).
Under “recovery time constant”, `COc1ccc2[nH]c3c(c2c1)CCN(C)CC3.Cl` is recorded as 19 ± 1.1 s (Nicotinic acetylcholine receptor alpha9/alpha10 (Rattus norvegicus, UniProt P43144+Q9JLB5); ion current, inhibitor, two-electrode voltage clamp; Xenopus laevis oocytes; 10 µM, rat receptor, added: acetylcholine 100 µM).
The selectivity ratio of `CC(C)(COP(=O)(O)O)[C@@H](O)C(=O)NCCC(=O)NS(=O)(=O)OC[C@H]1O[C@@H](n2ccc(N)nc2=O)[C@H](O)[C@@H]1O` is reported as 20 to 740 fold (phosphopantothenoylcysteine synthetase; enzyme activity; reference: IC50 human over bacterial).
`Nc1ccc(O)c(C(=O)O)c1` — result for polyP synthesis: “inhibited” (ppk (Escherichia coli, UniProt P0A7B1); enzyme activity, inhibitor; 1 mM; reference: DMSO).
`CCCCC/C=C\C/C=C\C/C=C\C/C=C\CCCC(=O)O` gave a kcat of 7.12 ± 0.05 µmol/min/nmol (cyp102A1 (Bacillus megaterium, UniProt P14779); NADPH consumption, substrate; 100 µM).
`NC(=O)[C@@H]1CC(F)(F)CN1C(=O)c1ccc(N2CC(F)(F)C2)c(OCC2CC2)n1` gave a selectivity ratio of 102 (CNR2 (Homo sapiens, UniProt P34972); binding, [3H]-CP55940 displacement; reference: CB1 Ki over CB2 Ki).
Under “binding fold change”, `O=C(O)C(F)(F)C(F)(F)C(F)(F)C(F)(F)C(F)(F)C(F)(F)C(F)(F)F` is recorded as 87.1 (FABP1 (Homo sapiens, UniProt P07148); affinity selection mass spectrometry; 100 nM, added: pooled compounds; reference: other proteins).
For `CN1CCN(c2cc(-c3ccncc3)c(-c3ccc4ccccc4c3)nn2)CC1`, the activation was -0.6% (NTSR1 (Homo sapiens, UniProt P30989); agonist, FLIPR; 12.5 µM).
`O=C(O)CCCCN(CCc1cc(F)ccc1OCc1ccc(-c2ccc(C(F)(F)F)cc2)cc1)Cc1ccc(C(=O)O)cc1` has a cGMP level of 4.02 ± 1.23 fold (Gucy1b1, with alpha1 subunit (Rattus norvegicus, UniProt P20595); rat cells; concentration not given, compound alone; reference: untreated control).
With `COc1ccc(N2C(=O)N(c3c(C)cccc3Cl)Cc3cnc(Nc4ccc(C5CCN(C)CC5)cc4OC)nc32)nc1` the inhibition was 5% (GRK7 (Homo sapiens, UniProt Q8WTQ7); kinase activity; 0.5 µM).
The Vmax/Km of `Oc1c(Br)cc(Br)cc1Oc1ccc(Br)cc1Br` is reported as 1570 µL/min/mg (SULT1E1 (Homo sapiens, UniProt P49888); sulfonation, substrate).
For `O=C(O)Cc1c[nH]cn1`, “normalised MST signal” read 0.0304 (SLC6A6 (Homo sapiens, UniProt P31641, Y138A); binding, microscale thermophoresis; 61 nM, room temperature, added: 50 nM labelled protein; higher = more binding).
`CCCCCCCCCCCC(=O)N[C@H]1CCOC1=O` has an Emax of 93.7% (sdiA).
`COc1ccc(-c2csc(N/N=C(/C=C/c3c(Cl)cccc3Cl)C(=O)O)n2)cc1` gave a selectivity index of 10 (ache (Electrophorus electricus, UniProt O42275); Ellman; reference: IC50 BChE over IC50 AChE).
The substrate conversion of `O=C(O)c1cc[c]([Sb](=[O])([OH])[OH])cc1[N+](=O)[O-]` is reported as 7% (Flap endonuclease 1 (Homo sapiens, UniProt P39748); gel radiotracer; 100 nM, 5 min, room temperature, added: single-flap substrate 50 nM).
The remaining activity of `CCOC(=O)CC(SP(=O)(OC)OC)C(=O)OCC` (stereo not shown) is reported as 2.95% (uncharacterized protein (Anopheles coluzzii, UniProt A0A6E8VQK1); enzyme activity, inhibitor; Sf9 cell homogenate; 22.94 µM, 0.1667 h, added: α-naphthyl acetate substrate; reference: no inhibitor).

A few entries again:
With `Nc1ncnc2c1ncn2[C@@H]1O[C@H](COP(=O)(O)OP(=O)(O)O)[C@@H](O)[C@H]1O` the ΔH was -2.2 ± 0.0514 kcal/mol (Cell cycle histidine kinase CckA, R374A; cytoplasmic region (Caulobacter vibrioides, UniProt Q9X688, R374A); binding, ITC; added: without c-di-GMP).
`CC=O`: “catalytic efficiency decrease” 10 fold (ADH1 (Saccharomyces cerevisiae, UniProt P00330, H49Q); enzyme activity, substrate; pH 7.3; reference: wild type).
With `CC(=O)SCC[N+](C)(C)C` the Km was 50 µM (acetylcholinesterase, Homarus americanus; enzyme activity, substrate, Ellman; ventral nerve cord homogenate; pH 7.4).
